Experimental data from different studies.
Every numbered part comes from another study and shows a few of its results, in no order.

Sample 1
Target: Interferon regulatory factor 7, full length, phosphomimetic (IRF7, Homo sapiens, UniProt Q92985, residues 1-503, S471D/S472D/S475D/S476D/S477D/S483D/S484D/S487D)
Method: protein-binding microarray
Form: double-stranded DNA, one strand shown
Sample: in vitro
Concentration: 2200 nM top
Notes: 60-bp whole probe
With: salmon DNA 0.4 mg/ml
Baseline: random background probes
Direction: higher = stronger binding
Shared flanks, not repeated: GCCTAGCAC … GTCTTGATTCGCTTGACGCTGCTG
Target sequence (chain): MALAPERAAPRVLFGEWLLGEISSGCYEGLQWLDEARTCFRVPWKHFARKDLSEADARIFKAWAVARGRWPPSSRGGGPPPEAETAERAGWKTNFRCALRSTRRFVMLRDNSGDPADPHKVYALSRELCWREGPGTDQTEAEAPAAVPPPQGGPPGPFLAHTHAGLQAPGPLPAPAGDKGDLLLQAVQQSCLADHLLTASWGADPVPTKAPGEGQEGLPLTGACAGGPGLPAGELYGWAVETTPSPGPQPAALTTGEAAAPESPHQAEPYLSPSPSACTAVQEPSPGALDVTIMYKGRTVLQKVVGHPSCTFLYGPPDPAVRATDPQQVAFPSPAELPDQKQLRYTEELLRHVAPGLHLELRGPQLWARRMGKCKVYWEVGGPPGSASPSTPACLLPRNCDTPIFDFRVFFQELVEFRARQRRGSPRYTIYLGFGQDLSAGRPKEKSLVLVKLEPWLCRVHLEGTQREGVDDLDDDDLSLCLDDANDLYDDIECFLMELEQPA
Sequence	fitted relative affinity
GACGGTCTCCTCCTGCTGACGTGCTAG	0.855 z-score
TTAGATTTGGGGTTTCGATTAGTGCTA	2.85 z-score
TTAGGTTTCGGTCTCGGTAAGTGCTAG	6.55 z-score
TTAGGTATCGGGTATCGGTTTGTGCTA	1.62 z-score
GAAAATGCCCTTTTGGTGAGGTGCTAG	1.02 z-score
GTAGGTCTCCTTTTCCTTTAGTGCTAG	1.95 z-score
TAAGAACTGGGGTTTCGATTAGTGCTA	2.25 z-score
TTAGATTTCGGGTTGCGATTAGTGCTA	6.1 z-score
GACGATCTCAGTACCGAGACGTGCTAG	0.444 z-score
TCACTTTTCTTTTCTTTACTGTGCTAG	7.9 z-score
TTAGATATCAGATTGGATTAGTGCTAG	-0.293 z-score
TCAATTATGAGTCTTGAACTGTGCTAG	-0.208 z-score
ATATATGTAATCATTCACCTGGTGCTA	0.792 z-score
CACGGACTGGACTATCGGGACGTGCTA	-0.898 z-score
CTCTCTTTCCACTTGTCTTTGTGCTAG	5.01 z-score
GACGGACTGGGGACTGGGGAGGTGCTA	-0.557 z-score
TTAGATTTCGGGTACCGATTAGTGCTA	2.42 z-score
TTAGGACTGGGAATGGGTTAGTGCTAG	-0.709 z-score
GACGATTCCAGATTCGAGACGTGCTAG	1.13 z-score

Sample 2
Target: RNA binding protein fox-1 homolog 2, RRM domain, GST-SBP tag (RBFOX2, Homo sapiens, UniProt O43251-10, residues 100-194)
Method: RNA Bind-n-Seq
Form: RNA
Sample: in vitro
Concentration: 365 nM
Notes: natural RNA segment, single round, ends assumed
Baseline: no-protein control
Direction: higher = stronger binding
Sequence	RBNS enrichment (R)
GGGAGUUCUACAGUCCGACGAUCACAAUGAAUUCAAUCUAUCAGGAUGUUCAUUUUUGGUAGGGAAUGGUUAAAAGAAAAGAACAAUAAGAUGCAUUCAAAGAAUAAUUGCUUUCAGCCUGCUGCCUAAAUCGUGGAAUUCUCGGGUGCCAA	1.29
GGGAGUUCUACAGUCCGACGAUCACUCCUUGGGCCCAAGGGCUUUAGCAGCUGGAUAUGGGGUUCCUUGAUUUUCCUCUGGGCCCAAAUAUAGCCCUCACACUCUUGGAAUUUCCAGGUAUGGGGGUAGCCCCUGGAAUUCUCGGGUGCCAA	1.25
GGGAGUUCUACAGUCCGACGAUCGCUAAAUGCCCAGGCCCACUUAACUUAUUAAUGUGUGAAUUACAUUUAUGUUUUUAGUUUAUAUGCAAAGAAUUGUGAUAAUUUUAUAAUAAAUAUUUUUAUUAUAAUAGUGGAAUUCUCGGGUGCCAA	1.06
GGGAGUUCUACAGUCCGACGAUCGCCGCUCUCCCCUCCUGUGGAUCCCUCCGCACUAACAGUGUUCUCAGUGGGCAGACGCCUGGGCACCCCUUGGGCCCUGCCCAGCAUGGCCAUGGCGCAGGCUCUCGAACUGGAAUUCUCGGGUGCCAA	2.47
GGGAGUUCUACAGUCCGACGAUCGUUUUGAAGUCAUCUUAGCUUUCCACAGGAGGGAGAGAACUUAAAAAAGCAACAGUAGCAGGGAAUUGAUCCACUUCUUAAUGCUUUCCUCCCUGGCAUGACCAUCCUGUUGGAAUUCUCGGGUGCCAA	3.43
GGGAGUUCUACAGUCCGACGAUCGGCUGGUACCCUUCCCAGAGUUACAGAAUCUUAGGUGCCGUCUCUAGUCUGUGAGGGAGGAACUCCCAGCAUCCCCAUUGCCCACAAAUGGAAUCCUCACUGUAUCCACUUGGAAUUCUCGGGUGCCAA	3.6
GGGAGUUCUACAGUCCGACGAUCUAUAUGACUACGGCUCAUGCUUCCAAGGUCAGCUCACAUGUGACCUCUGUGAGCUGUUCCCUCGCCUGAAUUCAUUGCAUCUUACACCUUGGCAUGCCUUGCUCACAAUAUGGAAUUCUCGGGUGCCAA	41.1
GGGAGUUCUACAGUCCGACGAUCCACAUACUGAUACCCUGUCUCUCAAAGGGAGAAAAAUUACUUAGGUAUGUCAGCACUUUUGUCCUGUAACUGUAGAUCUGUCUCAAUUGAAGUUAACUCACUAUAUUCGGUGGAAUUCUCGGGUGCCAA	0.806

Sample 3
Target: Histone acetyltransferase KAT6A, winged helix 1, GST fusion (KAT6A, Homo sapiens, UniProt Q92794, residues 1-85)
Method: protein binding microarray
Form: double-stranded DNA, one strand shown
Sample: in vitro
Concentration: not given
Notes: 8-mer, flanks averaged, mean of 2 arrays, mostly near background
Baseline: not given
Direction: higher = stronger binding
Construct (chain): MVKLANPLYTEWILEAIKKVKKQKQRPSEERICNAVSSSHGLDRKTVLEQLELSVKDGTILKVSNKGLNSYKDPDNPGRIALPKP
Sequence	E-score
AATGTTTA	-0.166
ACGGCCTG	0.304
GAGGATTA	-0.11
CTTTGTCA	-0.0699
ACGTGTGC	-0.19
GAACAATA	0.0404
CATTTGGC	-0.227
GGTGCACA	-0.00986
ACAGAGGC	-0.0202
CAAGAGTC	-0.251
GCACTTTA	-0.156
GGTTGGAC	-0.0417
CTATTCGA	-0.292
TATCCCGA	0.0469
CGACCGGA	0.145
CAGAACTC	-0.134
AAAAATTG	-0.19
CCTTGTGC	-0.104

Sample 4
Target: Fragile X messenger ribonucleoprotein 1, C-terminal low-complexity region (Fmr1, Mus musculus, UniProt P35922)
Method: RNA Bind-n-Seq
Form: RNA
Sample: in vitro
Concentration: 200 nM
Notes: whole 134-nt RNA, ends assumed
With: 150 mM KCl
Baseline: input library
Direction: higher = stronger binding
Sequence	log2 enrichment
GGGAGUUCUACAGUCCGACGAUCUAAUUUUAGAGGAGGAUCUGAUGGAUAUGGCAGUGGACGUGGAUUUGGGGAUGGCUAUAAUGGGUAUGGAGGAGGACCUGGAGGUGGCAAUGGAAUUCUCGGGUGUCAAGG	0.246
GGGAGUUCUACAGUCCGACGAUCUCAAGUCCUGUGCUACACAUCGUAUGUACCGAAUCGGGUGGGAAAAAGGGUGGGAAAGUAUUAUGUUACGCCGUUCGGAUCUGCACUUCCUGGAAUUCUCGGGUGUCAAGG	1.05
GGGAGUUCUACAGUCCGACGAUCCACAGACAACACGCACCCACACAGACACAGAGGGAAGGGGUUGGGAUGGGGACAGGGUGCACAGCAGGGCCGGGUAGGACCCCAGCCCCUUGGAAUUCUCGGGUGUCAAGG	1.39
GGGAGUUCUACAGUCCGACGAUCUAACUUUAGAGGGGGAUCUGAUGGAUAUGGCAGUGGACGUGGAUUUGGGGAUGGCUAUAAUGGGUAUGGAGGAGGACCUGGAGGUGGCAAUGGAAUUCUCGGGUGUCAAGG	0.445
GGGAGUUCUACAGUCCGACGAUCUAACUUUAGAGGAGGAUCUGAUGGAUAUGGCAGUGCACGUGGAUUUGGGGAUGGCUAUAAUGGGUAUGGAGGAGGACCUGGAGGUGGCAAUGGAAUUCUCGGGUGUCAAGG	0.224
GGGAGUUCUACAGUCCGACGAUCAAGUCCUGUGCUACACAUCGUAUGUACCGAAUCGGGCCCCGGCCCCGGGCCCCGGGAAAGUAUUAUGUUACGCCGUUCGGAUCUGCACUUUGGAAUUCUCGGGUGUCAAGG	-0.856
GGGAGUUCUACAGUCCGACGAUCCCUGUGCUACACAUCGUAUGUACCGAAUCGGGUUUUUUUGGUUUUUUUGGGGUUUUUUUGGAAAGUAUUAUGUUACGCCGUUCGGAUCUGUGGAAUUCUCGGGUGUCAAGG	-0.877
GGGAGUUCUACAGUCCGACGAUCUGUCGGGGCCAAAGUGGUAACGAACGCCCGCAGCCCGGGGGCUCGAUGCUAUGGAUUCGUCACCAUGUCGACAUCUGACGAGGCGACCAAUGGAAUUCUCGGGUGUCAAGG	-2.38
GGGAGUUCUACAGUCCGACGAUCUCCUGUGCUACACAUCGUAUGUACCGAAUCGGGUUUUUUGGGUUUUUUGGGGUUUUUUGGAAAGUAUUAUGUUACGCCGUUCGGAUCUGCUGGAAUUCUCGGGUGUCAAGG	0.233

Excerpt of the above (sample 3):
Sequence	E-score
GAACAATA	0.0404
GGTGCACA	-0.00986
CAGAACTC	-0.134
CAAGAGTC	-0.251
GAGGATTA	-0.11
CGACCGGA	0.145
